Literature values, collected from citations in different studies.
Lines come from different studies, so protocols differ. ± gives the spread as reported. Bridge positions count the residues as written; N and C are the ends. Ends that are not written are not given here.
Chain of UniProt P25021 (whole entry, looked up): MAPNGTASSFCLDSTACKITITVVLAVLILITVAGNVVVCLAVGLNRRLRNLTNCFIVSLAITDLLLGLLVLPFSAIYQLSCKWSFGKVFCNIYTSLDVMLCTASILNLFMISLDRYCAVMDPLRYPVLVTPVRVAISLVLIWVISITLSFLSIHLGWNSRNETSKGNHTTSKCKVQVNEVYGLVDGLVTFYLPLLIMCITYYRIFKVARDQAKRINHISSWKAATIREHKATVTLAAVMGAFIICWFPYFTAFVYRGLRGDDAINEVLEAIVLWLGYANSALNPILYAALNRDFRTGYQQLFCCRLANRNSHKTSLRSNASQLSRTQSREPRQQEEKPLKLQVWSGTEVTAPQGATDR
Chain of UniProt P23975 (whole entry, looked up): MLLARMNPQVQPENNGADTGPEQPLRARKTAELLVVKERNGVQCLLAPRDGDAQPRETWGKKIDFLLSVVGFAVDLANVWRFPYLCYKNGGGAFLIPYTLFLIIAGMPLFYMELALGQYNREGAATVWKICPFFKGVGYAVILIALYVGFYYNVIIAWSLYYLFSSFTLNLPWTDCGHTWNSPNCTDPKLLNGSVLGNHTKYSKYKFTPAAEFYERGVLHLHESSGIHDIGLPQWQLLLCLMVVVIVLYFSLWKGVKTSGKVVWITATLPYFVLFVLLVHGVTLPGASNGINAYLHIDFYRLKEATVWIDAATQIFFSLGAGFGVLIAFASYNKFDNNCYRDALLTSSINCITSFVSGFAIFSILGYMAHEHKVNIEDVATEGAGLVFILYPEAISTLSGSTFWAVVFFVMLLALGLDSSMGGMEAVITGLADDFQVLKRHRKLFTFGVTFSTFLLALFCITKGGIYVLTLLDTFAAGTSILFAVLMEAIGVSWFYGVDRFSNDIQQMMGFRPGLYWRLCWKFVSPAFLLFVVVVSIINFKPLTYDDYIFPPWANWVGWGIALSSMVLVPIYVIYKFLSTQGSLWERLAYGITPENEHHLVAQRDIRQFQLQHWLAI
Chain of UniProt P33533 (whole entry, looked up): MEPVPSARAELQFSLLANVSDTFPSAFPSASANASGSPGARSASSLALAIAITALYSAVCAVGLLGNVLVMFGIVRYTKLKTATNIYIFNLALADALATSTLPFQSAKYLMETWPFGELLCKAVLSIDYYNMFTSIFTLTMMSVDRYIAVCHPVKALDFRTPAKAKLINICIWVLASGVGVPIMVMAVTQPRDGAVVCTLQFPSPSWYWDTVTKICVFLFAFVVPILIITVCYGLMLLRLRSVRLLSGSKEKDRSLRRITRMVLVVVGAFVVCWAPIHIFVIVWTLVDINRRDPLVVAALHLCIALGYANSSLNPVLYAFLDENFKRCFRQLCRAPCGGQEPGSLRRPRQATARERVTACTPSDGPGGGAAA
Chain of UniProt Q2M2I8 (whole entry, looked up): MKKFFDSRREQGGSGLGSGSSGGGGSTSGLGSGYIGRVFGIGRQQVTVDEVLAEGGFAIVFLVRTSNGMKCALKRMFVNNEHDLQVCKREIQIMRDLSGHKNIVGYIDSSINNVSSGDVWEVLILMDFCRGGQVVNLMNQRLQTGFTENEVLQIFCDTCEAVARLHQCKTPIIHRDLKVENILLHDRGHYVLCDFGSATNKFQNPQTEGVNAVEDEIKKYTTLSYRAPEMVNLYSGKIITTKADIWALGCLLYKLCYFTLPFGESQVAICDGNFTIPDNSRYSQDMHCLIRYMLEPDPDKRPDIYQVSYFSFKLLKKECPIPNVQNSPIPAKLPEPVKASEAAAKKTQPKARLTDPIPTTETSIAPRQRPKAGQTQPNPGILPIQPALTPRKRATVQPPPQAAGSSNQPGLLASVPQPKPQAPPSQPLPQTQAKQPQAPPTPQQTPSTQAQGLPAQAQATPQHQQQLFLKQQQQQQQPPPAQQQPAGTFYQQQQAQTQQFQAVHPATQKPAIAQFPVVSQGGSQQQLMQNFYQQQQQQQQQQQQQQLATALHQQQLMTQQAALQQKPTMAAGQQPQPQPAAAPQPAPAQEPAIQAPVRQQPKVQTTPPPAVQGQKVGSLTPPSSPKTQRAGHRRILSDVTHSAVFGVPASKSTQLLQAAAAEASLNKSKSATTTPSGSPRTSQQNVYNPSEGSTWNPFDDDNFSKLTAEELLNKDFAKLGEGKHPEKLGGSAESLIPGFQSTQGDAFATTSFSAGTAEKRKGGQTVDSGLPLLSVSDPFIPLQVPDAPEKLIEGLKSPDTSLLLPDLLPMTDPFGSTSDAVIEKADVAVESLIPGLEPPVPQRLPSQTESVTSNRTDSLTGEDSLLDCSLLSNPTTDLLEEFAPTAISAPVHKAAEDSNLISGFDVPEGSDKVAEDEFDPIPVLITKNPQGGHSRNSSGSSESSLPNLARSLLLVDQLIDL
Chain of UniProt P0AEE3 (whole entry, looked up): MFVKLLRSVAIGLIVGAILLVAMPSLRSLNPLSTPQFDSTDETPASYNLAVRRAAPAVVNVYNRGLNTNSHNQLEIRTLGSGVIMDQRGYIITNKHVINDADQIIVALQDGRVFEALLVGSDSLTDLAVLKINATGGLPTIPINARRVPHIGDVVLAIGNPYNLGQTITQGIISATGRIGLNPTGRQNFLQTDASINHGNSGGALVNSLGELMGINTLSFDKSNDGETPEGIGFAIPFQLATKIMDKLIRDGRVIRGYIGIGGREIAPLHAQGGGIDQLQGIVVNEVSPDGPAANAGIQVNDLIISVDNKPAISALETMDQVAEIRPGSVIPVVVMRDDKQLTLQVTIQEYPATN
Chain of UniProt P0DW61 (whole entry, looked up): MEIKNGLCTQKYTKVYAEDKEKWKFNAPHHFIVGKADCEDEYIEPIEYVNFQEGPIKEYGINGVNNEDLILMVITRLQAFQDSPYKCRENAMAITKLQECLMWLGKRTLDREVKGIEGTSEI

Molecule | target | test | system | setting | endpoint | value
[K+] | Na+/K+-ATPase (human) | binding | human erythrocytes | added: Na+ 150 mM | Kd | 330 µM
NC(=O)C1=CN([C@@H]2O[C@H](COP(=O)(O)OP(=O)(O)OC[C@H]3O[C@@H](n4cnc5c(N)ncnc54)[C@H](O)[C@@H]3O)[C@@H](O)[C@H]2O)C=CC1 | S-adenosylhomocysteine hydrolase human | cofactor binding |  | concentration not given | Kd | ~0.01 µM
CCS(=O)(=O)N1CC(CC#N)(n2cc(-c3ncnc4[nH]ccc34)cn2)C1 | AAK1 (Homo sapiens, UniProt Q2M2I8) | binding |  |  | Kd | 0.017 µM
Nc1ncnc2c1ncn2[C@@H]1O[C@@H]2COP(=O)(O)OP(=O)(O)OC[C@H]3OC(O[C@@H]1[C@@H]2O)[C@H](O)[C@@H]3O | tad1 (Metaclostridioides mangenotii, UniProt P0DW61) |  |  |  | Kd | 0.241 µM
OCc1ccc(-c2nn(Cc3ccccc3)c3ccccc23)o1 | soluble guanylate cyclase, bovine lung | binding, equilibrium dialysis |  | without NO or CO, added: Mn2+ | Kd | 52 µM
CSCC[C@H](NC(=O)[C@H](CC(C)C)NC(=O)[C@H](Cc1ccccc1)NC(=O)[C@H](CC(=O)O)NC(=O)[C@H](Cc1ccc(O)cc1)NC(=O)[C@H](Cc1c[nH]c2ccccc12)NC(=O)[C@@H](NC(=O)[C@@H](NC(=O)[C@H](CCCNC(=N)N)NC(=O)[C@@H](N)CO)C(C)C)[C@@H](C)O)C(=O)N[C@@H](CCC(=O)O)C(=O)N[C@@H](CC(=O)O)C(=O)N[C@H](C(=O)N[C@@H](CCCCN)C(=O)N[C@@H](CO)C(=O)N[C@@H](CCCNC(=N)N)C(=O)O)[C@@H](C)O | Gαi | binding, surface plasmon resonance |  |  | Kd | 3.9 µM
COc1ccc(CCN2CCN(C/C=C/I)CC2)cc1OC [iodine-123 labelled] | sigma-1 receptor mouse | cold saturation binding | brain membranes |  | Kd | 0.00379 µM
N=C(N)NCCC[C@H](NC(=O)[C@H](CC(N)=O)NC(=O)[C@H](CC(=O)O)NC(=O)[C@H](CCCCN)NC(=O)[C@H](CCCCN)NC(=O)CCNC(=S)Nc1ccc2c(c1)C(=O)OC21c2ccc(O)cc2Oc2cc(O)ccc21)C(=O)N[C@@H](CC(=O)O)C(=O)NCC(=O)N[C@@H](CC(N)=O)C(=O)N[C@@H](Cc1ccc(O)cc1)C(=O)N[C@@H](Cc1ccc(O)cc1)C(=O)N[C@@H](Cc1ccccc1)C(=O)O | Serine endoprotease DegS (degS, Escherichia coli, UniProt P0AEE3) | binding |  |  | Kd | 4.6 ± 0.3 µM
C=CCN(CC=C)CCc1c[nH]c2ccccc12 | SLC6A2 (Homo sapiens, UniProt P23975) | binding |  | added: [3H]nisoxetine | Ki | 1.12 µM
CCCC(=O)O[C@@H]1[C@@H](C)[C@@]2(O)[C@@H](C=C(CO)C[C@]3(O)C(=O)C(C)=C[C@@H]23)[C@@H]2C(C)(C)[C@]12OC(=O)CCC | PKC delta with C1b only | binding |  |  | Kd | 0.0028 µM
C[S+](CC[C@H](N)C(=O)[O-])C[C@H]1O[C@@H](n2cnc3c(N)ncnc32)[C@H](O)[C@@H]1O (stereo partly drawn) | EgtD (Mycolicibacterium smegmatis) | binding, isothermal titration calorimetry |  |  | Kd | 270 ± 20 µM
C=CCN(CC=C)CCc1c[nH]c2ccc(Br)cc12 | HRH2 (Homo sapiens, UniProt P25021) |  |  |  | Ki | > 10 µM
OC[C@H]1O[C@H](O[C@H]2[C@H](O)[C@@H](O)C(O)O[C@@H]2CO)[C@H](O)[C@@H](O)[C@@H]1O (mixture of isomers) | maltose-binding protein E. coli |  |  | MalFGK2 complex outward-facing | Kd | ~120 µM
Dmt-c(SEtS)[DCys-Aci-DPen]OH | Oprd1 (Rattus norvegicus, UniProt P33533) | antagonist |  | added: DPDPE | Kd | 0.0044 ± 0.0014 µM
CHPGPPC (disulfide 1-7) (disulfide) | Streptavidin (Streptomyces avidinii, UniProt P22629) | binding |  |  | Kd | 0.67 µM

For quick reference, copied from above:
Molecule | target | test | system | setting | endpoint | value
Nc1ncnc2c1ncn2[C@@H]1O[C@@H]2COP(=O)(O)OP(=O)(O)OC[C@H]3OC(O[C@@H]1[C@@H]2O)[C@H](O)[C@@H]3O | tad1 (Metaclostridioides mangenotii, UniProt P0DW61) |  |  |  | Kd | 0.241 µM
OCc1ccc(-c2nn(Cc3ccccc3)c3ccccc23)o1 | soluble guanylate cyclase, bovine lung | binding, equilibrium dialysis |  | without NO or CO, added: Mn2+ | Kd | 52 µM
